Assay results gathered from unrelated publications.
Compare with care: the assays were run in different laboratories. ± gives the spread as reported.
Target: Mu-type opioid receptor (Oprm1, Rattus norvegicus, UniProt P33535)
Chain of UniProt P33535 (whole entry, looked up): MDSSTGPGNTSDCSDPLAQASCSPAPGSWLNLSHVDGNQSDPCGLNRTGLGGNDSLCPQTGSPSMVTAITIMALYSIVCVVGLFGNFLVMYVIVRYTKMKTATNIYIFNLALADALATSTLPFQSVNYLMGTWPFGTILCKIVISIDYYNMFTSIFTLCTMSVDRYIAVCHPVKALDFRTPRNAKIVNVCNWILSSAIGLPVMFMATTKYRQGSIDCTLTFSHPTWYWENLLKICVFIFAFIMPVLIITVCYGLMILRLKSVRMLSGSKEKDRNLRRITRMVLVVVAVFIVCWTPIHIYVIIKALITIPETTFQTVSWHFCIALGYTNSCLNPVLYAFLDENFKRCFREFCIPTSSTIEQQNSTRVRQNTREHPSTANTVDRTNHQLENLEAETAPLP

Compound | assay | system | conditions | quantity | value
Cc1cc(O)cc(C)c1C[C@H](N)C(=O)N1Cc2ccccc2C[C@H]1CN[C@@H](Cc1ccccc1)C(=O)N[C@@H](Cc1ccccc1)C(N)=O | cAMP inhibition, agonist | C6 expressing target | together with: forskolin | IC50 | 5.1 ± 3.8 nM
Cc1cc(O)cc(C)c1C[C@H](N)C(=O)N[C@@H](C(=O)NCC(=O)N[C@@H](Cc1ccc2ccccc2c1)C(=O)N[C@@H](CC(C)C)C(=O)N[C@@H](CO)C(N)=O)[C@H](C)O | GTPγS binding, agonist, radiometric |  | cell membranes | EC50 | 1.5 nM
CCCC[C@@H]1NC(=O)[C@H](Cc2ccccc2)NC(=O)CNC(=O)[C@H](NC(=O)[C@@H](N)Cc2ccc(O)cc2)C(C)(C)SSC(C)(C)[C@H](C(=O)N[C@@H](Cc2c[nH]c3ccccc23)C(=O)NCc2cc(C(F)(F)F)cc(C(F)(F)F)c2)NC(=O)[C@@H]2CCCN2C1=O |  |  |  | IC50 | 2040 nM
Cc1cc(O)cc(C)c1CC(N)C(=O)NC1CCNc2ccc(CN3CCc4ccccc4C3)cc21 (stereo not drawn) | GTPγS binding, agonist, radiometric |  | cell membranes | EC50 | 0.4 nM
CCNC(=O)c1cc(Cc2ccccc2)cc2c1NCCC2NC(=O)C(N)Cc1c(C)cc(O)cc1C (stereo not drawn) | GTPγS binding, agonist, radiometric |  | cell membranes | EC50 | 2.1 nM
Cc1cc(O)cc(C)c1CC(N)C(=O)NC1CCNc2ccc(Cc3ccc4ncccc4c3)cc21 (stereo not drawn) | GTPγS binding, agonist, radiometric |  | cell membranes | EC50 | 23 nM
Cc1cc(O)cc(C)c1CC(N)C(=O)NC1CCNc2c(F)cc(Cc3ccccc3)cc21 (stereo not drawn) | ligand displacement, radioligand |  | cell membranes | Ki | 0.11 nM
Cc1cc(O)cc(C)c1CC(N)C(=O)NC1CCNc2ccc(Cc3ccoc3)cc21 (stereo not drawn) | GTPγS binding, agonist, radiometric |  | cell membranes | EC50 | 72 nM
CCCC[C@H](NC(=O)[C@H](Cc1ccccc1)NC(=O)CNC(=O)[C@@H](C)NC(=O)[C@@H](N)Cc1ccc(O)cc1)C(=O)N1CCC[C@H]1C(=O)N[C@@H](CC(C)C)C(=O)N[C@@H](CO[C@@H]1O[C@H](CO)[C@@H](O)[C@H](O)[C@H]1O)C(=O)N[C@@H](Cc1c[nH]c2ccccc12)C(=O)NCc1cc(C(F)(F)F)cc(C(F)(F)F)c1 | ligand displacement, radioligand |  |  | IC50 | 60.3 nM
Cc1cc(O)cc(C)c1CC(N)C(=O)NC1CCNc2ccc(CN3CCC4CCCCC4C3)cc21 (stereo not drawn) | GTPγS binding, agonist, radiometric |  | cell membranes | EC50 | 2 nM
Cc1cc(O)cc(C)c1CC(N)C(=O)NC1CCNc2c1cc(Cc1ccccc1)cc2C(F)(F)F (stereo not drawn) | GTPγS binding, agonist, radiometric |  | cell membranes | EC50 | 1.8 nM
O=C1N[C@@H](Cc2ccccc2)C(=O)N2CCC[C@@H]2C(=O)N[C@@H](Cc2ccccc2)C(=O)N[C@H]1Cc1c[nH]c2ccccc12 | antagonist |  |  | Kb | 10.2 ± 1.7 nM

Repeated from above:
Compound | assay | system | conditions | quantity | value
Cc1cc(O)cc(C)c1CC(N)C(=O)NC1CCNc2ccc(CN3CCC4CCCCC4C3)cc21 (stereo not drawn) | GTPγS binding, agonist, radiometric |  | cell membranes | EC50 | 2 nM
CCNC(=O)c1cc(Cc2ccccc2)cc2c1NCCC2NC(=O)C(N)Cc1c(C)cc(O)cc1C (stereo not drawn) | GTPγS binding, agonist, radiometric |  | cell membranes | EC50 | 2.1 nM
